Experimental data gathered from unrelated publications.
Parts stem from different laboratories: compare values within a part only.

Set 1
Target: Cyclin-dependent kinase 6, with cyclin D3 (CDK6, Homo sapiens, UniProt Q00534)
Sequence of UniProt Q00534 (whole entry, looked up): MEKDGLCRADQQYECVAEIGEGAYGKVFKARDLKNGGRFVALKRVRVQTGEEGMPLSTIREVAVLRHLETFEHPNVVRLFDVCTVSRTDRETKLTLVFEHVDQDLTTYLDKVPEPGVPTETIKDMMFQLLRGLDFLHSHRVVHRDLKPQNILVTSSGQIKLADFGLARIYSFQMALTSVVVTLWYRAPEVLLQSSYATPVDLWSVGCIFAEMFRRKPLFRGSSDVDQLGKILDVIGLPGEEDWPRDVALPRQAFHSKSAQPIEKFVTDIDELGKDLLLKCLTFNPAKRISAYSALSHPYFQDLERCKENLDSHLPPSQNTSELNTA
Observed: enzyme activity
Mode: inhibitor
Concentration: 0.5 µM
Relative to: control
For `Nc1cccc(-c2cc3c(Oc4cccc(O)c4)ncnc3[nH]2)c1`, the remaining activity was 91.3%.
For `Ic1cccc(CSc2nnc(-c3ccncc3)o2)c1`, the remaining activity was 102%.
`N#Cc1c(NC(=O)c2cccc3ccccc23)sc2c1CCCC2` gave a remaining activity of 99%.
`Cc1nc2cc3nc(-c4cccs4)cnc3cc2n1C` gave a remaining activity of 87.8%.
With `c1ccc(-c2cnc(Nc3ccc(OCCN4CCCC4)cc3)s2)cc1` the remaining activity was 20.1%.
`COc1cc2ncnc(Nc3ccc(O)c(Br)c3)c2cc1OC` has a remaining activity of 102%.
The remaining activity of `CCN(CC)CCNC(=O)c1c(C)[nH]c(/C=C2\C(=O)Nc3ccc(F)cc32)c1C` is reported as 59.7%.
`CN([C@@H](Cc1ccc(OS(=O)(=O)c2cccc3cnccc23)cc1)C(=O)N1CCN(c2ccccc2)CC1)S(=O)(=O)c1cccc2cnccc12` has a remaining activity of 105%.
`C[C@@H]1CCN(C(=O)CC#N)C[C@@H]1N(C)c1ncnc2[nH]ccc12` has a remaining activity of 110%.
`COc1cc2c(cc1OC)-c1[nH]nc(Nc3cccc(F)c3)c1C2` has a remaining activity of 99.5%.
`CCOc1nc(NC(=O)Cc2cc(OC)ccc2OC)cc(N)c1C#N` gave a remaining activity of 98.6%.
`CN(C)C[C@H]1CCn2c(c(C3=C(c4cn(C)c5ccccc45)C(=O)NC3=O)c3ccccc32)C1` has a remaining activity of 95%.
For `CCN(CC)C(=O)c1ccc(Nc2nc(OCC3CCCCC3)c3[nH]cnc3n2)cc1`, the remaining activity was 47.2%.
`COc1cc2ncnc(Nc3cccc(Cl)c3)c2cc1OC` has a remaining activity of 90.1%.
The remaining activity of `O=C1C(Cl)=C(N2C(=O)CCC2=O)C(=O)c2ccccc21` is reported as 99.2%.
`O=C(NC(NC(=S)Nc1ccc(F)c([N+](=O)[O-])c1)C(Cl)(Cl)Cl)C(c1ccccc1)c1ccccc1` (centres unmarked) has a remaining activity of 99.3%.
For `N#C/C(=C\c1ccc(O)c(O)c1)C(=O)NCc1ccccc1`, the remaining activity was 104%.
`Cc1cc2ncc(-c3ccccc3)nc2cc1C` has a remaining activity of 86.7%.
For `Cc1cn(-c2cc(NC(=O)c3ccc(C)c(Nc4nccc(-c5cccnc5)n4)c3)cc(C(F)(F)F)c2)cn1`, the remaining activity was 128%.
`c1ccc(-c2[nH]ncc2-c2ccnc3ccccc23)nc1` gave a remaining activity of 98.2%.
With `O=c1cc(-c2cccc3c2Sc2ccccc2S3)oc(N2CCOCC2)c1` the remaining activity was 106%.

Set 2
SMILES: C=CCc1ccc(O)c(-c2cc(CC=C)ccc2O)c1
Observed: chloride current
Method: inside-out patch clamp
Concentration: 30 µM
ANO1 del476-501/E659A: Anoctamin-1 (ANO1, Homo sapiens, UniProt Q5XXA6, del476-501/E659A)
Sequence of UniProt Q5XXA6 (whole entry, unmodified, looked up): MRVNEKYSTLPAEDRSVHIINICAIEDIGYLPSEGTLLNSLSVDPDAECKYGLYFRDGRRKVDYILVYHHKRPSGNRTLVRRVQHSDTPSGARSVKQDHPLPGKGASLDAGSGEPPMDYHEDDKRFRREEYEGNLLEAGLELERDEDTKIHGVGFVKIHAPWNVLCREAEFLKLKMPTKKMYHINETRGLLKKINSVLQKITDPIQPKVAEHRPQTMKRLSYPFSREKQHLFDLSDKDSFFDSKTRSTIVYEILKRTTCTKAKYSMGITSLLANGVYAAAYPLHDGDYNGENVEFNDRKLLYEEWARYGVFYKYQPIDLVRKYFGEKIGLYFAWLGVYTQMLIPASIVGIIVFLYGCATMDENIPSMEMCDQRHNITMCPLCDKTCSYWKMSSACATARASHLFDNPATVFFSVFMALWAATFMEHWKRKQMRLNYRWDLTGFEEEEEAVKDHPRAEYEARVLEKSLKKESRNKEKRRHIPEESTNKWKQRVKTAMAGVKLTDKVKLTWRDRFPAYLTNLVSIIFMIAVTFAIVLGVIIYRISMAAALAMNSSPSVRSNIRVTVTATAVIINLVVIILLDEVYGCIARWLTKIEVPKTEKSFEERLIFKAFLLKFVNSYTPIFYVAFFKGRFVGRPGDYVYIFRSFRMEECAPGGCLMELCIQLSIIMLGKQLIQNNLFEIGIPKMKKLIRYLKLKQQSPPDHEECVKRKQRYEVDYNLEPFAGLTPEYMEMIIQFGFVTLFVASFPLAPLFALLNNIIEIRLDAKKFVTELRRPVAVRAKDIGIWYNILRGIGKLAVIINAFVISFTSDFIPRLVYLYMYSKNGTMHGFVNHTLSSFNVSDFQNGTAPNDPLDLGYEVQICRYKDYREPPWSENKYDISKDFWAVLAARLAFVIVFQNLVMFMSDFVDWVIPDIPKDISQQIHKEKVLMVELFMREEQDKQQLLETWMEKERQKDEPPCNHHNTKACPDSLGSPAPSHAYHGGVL
ANO1 del476-501/E659A/K629A: Anoctamin-1 (ANO1, Homo sapiens, UniProt Q5XXA6, del476-501/E659A/K629A)
The normalized current was 0.512 (TMEM16A (human) K603A/E623A; membrane voltage 80 mV).
The normalized current was 1 (ANO1 del476-501/E659A; membrane voltage 120 mV).
ANO1 del476-501/E659A/K629A; membrane voltage 120 mV — normalized current: 1.
For Anoctamin-1 (ANO1, Homo sapiens, UniProt Q5XXA6, del476-501/E649A/R541A); membrane voltage -60 mV: normalized current read -0.261.
ANO1 del476-501/E659A/K629A; membrane voltage -40 mV — normalized current: -0.238.
It gave 0.299 for normalized current (ANO1 del476-501/E659A; membrane voltage 40 mV).
For Anoctamin-1 (ANO1, Homo sapiens, UniProt Q5XXA6, del476-501/K629A); membrane voltage 80 mV: normalized current read 0.555.

Set 3
Cell line: A-375
Concentration: 100 µM
Time: 18 h
For `CCn1cc(C(=O)O)c(=O)c2cc3c(cc21)OCO3`, the viability was 110%.
`CNC1CCCN(c2c(F)cc3c(=O)c(C(=O)O)cn(C4CC4)c3c2OC)C1` (centres unmarked) gave a viability of 95%.
For `CC(C)(Oc1ccc(Cl)cc1)C(=O)O`, the viability was 114%.
With `CCOC(=O)c1c(C)n(C)c2ccc(O)cc12` the viability was 69.1%.
With `NC(=O)c1cc[n+](CC2=C(C(=O)O)N3C(=O)[C@@H](NC(=O)[C@@H](c4ccccc4)S(=O)(=O)[O-])[C@H]3SC2)cc1` the viability was 71.7%.
For `C[C@]12CC[C@@H]3c4ccc(OC(=O)c5ccccc5)cc4CC[C@H]3[C@@H]1CC[C@@H]2O`, the viability was 8.38%.
The viability of `COc1cc(NS(=O)(=O)c2ccc(N)cc2)ncn1` is reported as 96.7%.
The viability of `O=C(O)CCCNC(=O)c1cccnc1` is reported as 104%.
`CC(C)c1nc(CN(C)C(=O)N[C@H](C(=O)N[C@@H](Cc2ccccc2)C[C@H](O)[C@H](Cc2ccccc2)NC(=O)OCc2cncs2)C(C)C)cs1` gave a viability of 16.7%.
For `NCc1ccc(C(=O)O)cc1`, the viability was 93%.

Set 4
Target: Calcium/calmodulin-dependent protein kinase type II subunit alpha (CAMK2A, Homo sapiens, UniProt Q9UQM7)
Sequence of UniProt Q9UQM7 (whole entry, looked up): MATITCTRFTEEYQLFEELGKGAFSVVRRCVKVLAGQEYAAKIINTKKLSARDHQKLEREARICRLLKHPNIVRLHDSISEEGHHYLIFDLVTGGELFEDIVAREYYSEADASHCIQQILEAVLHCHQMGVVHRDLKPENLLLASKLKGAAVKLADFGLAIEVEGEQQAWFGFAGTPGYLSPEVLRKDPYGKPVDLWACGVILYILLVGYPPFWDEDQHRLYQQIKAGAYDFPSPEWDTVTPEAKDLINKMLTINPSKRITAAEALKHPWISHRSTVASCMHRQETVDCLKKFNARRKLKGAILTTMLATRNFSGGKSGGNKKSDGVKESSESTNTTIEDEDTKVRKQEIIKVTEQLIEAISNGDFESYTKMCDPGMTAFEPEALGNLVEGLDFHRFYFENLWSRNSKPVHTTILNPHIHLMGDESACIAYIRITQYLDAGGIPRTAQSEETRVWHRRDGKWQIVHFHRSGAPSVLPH
Observed: enzyme activity
Mode: inhibitor
Concentration: 10 µM
With `CN1CCN2c3ncccc3Cc3ccccc3C2C1` (centres unmarked) the inhibition was -2%.
With `O=C1c2cccc3c2[C@H](CCC3)CN1[C@@H]1CN2CCC1CC2` the inhibition was -9%.
The inhibition of `NCCS` is reported as 14%.
`O=C(O)[C@@H](O)CO` gave an inhibition of 9%.
With `OC[C@@]1(O)OC[C@@H](O)[C@@H](O)[C@@H]1O` the inhibition was 24%.
The inhibition of `C[C@H]1COC2=C1C(=O)C(=O)c1c2ccc2c1CCCC2(C)C` is reported as 23%.
With `C[N+](C)(C)[C@@H](Cc1c[nH]c(=S)[nH]1)C(=O)[O-]` the inhibition was -17%.
The inhibition of `C[C@@H]1O[C@@H](c2c(O)c([C@@H]3O[C@H](CO)[C@@H](O)[C@H](O)[C@H]3O)c3oc(-c4ccc(O)cc4)cc(=O)c3c2O)[C@H](O)[C@H](O)[C@H]1O` is reported as 16%.
`O=C1C[C@@H](c2ccc(O)c(O)c2)Oc2cc(O[C@@H]3O[C@H](CO)[C@@H](O)[C@H](O)[C@H]3O)cc(O)c21` has an inhibition of 0%.

Excerpt of the above (set 3):
With `NC(=O)c1cc[n+](CC2=C(C(=O)O)N3C(=O)[C@@H](NC(=O)[C@@H](c4ccccc4)S(=O)(=O)[O-])[C@H]3SC2)cc1` the viability was 71.7%.
For `C[C@]12CC[C@@H]3c4ccc(OC(=O)c5ccccc5)cc4CC[C@H]3[C@@H]1CC[C@@H]2O`, the viability was 8.38%.
The viability of `COc1cc(NS(=O)(=O)c2ccc(N)cc2)ncn1` is reported as 96.7%.
